# Measured values gathered from unrelated publications.
# Parts stem from different laboratories: compare values within a part only. Positions count from the first letter of the parent shown.

# Set 1
# Target: CCND1, cyclin fold, Cln2 fusion (human)
# Method: yeast growth competition, sequencing
# Medium: yeast
# Notes: weak parent motif
# Reference: not given
# Reading: higher = stronger binding
# Starting sequence: RB1 docking peptide (human); PKPLKKLRFDIEG
Change,normalised enrichment score
PKPPKKLRFDIEG [L4P],-0.136
PHPLKKLRFDIEG [K2H],-0.594
PKPLKHLRFDIEG [K6H],0.00875
PKPLKKLRCDIEG [F9C],0.11
PKPLKRLRFDIEG [K6R],0.0614
PVPLKKLRFDIEG [K2V],0.448
PTPLKKLRFDIEG [K2T],-0.911
PNPLKKLRFDIEG [K2N],-0.0102
PSPLKKLRFDIEG [K2S],-0.0913
PKPLHKLRFDIEG [K5H],0.133
PKPLKKLRFDIEQ [G13Q],0.203
PKPLKKLRRDIEG [F9R],-0.595
PKPLKKLRFDNEG [I11N],0.302
PKPLKKLRFDIEC [G13C],0.123
PKPLKKLWFDIEG [R8W],-0.155
PKDLKKLRFDIEG [P3D],0.554
PKPLKKRRFDIEG [L7R],-0.00601

# Set 2
# Target: Prothrombin, mature alpha-thrombin (F2, Homo sapiens, UniProt P00734)
# Method: aptamer microarray, sandwich
# Form: DNA with 2'F-ANA
# Medium: in vitro
# Tested at: 200 nM
# Notes: whole 15-mer aptamer, many near background
# Added: Cy3 exosite-II aptamer, 400 nM
# Reading: higher = stronger binding
# Strand: GGTTGGTGTGGTTGG
Modification,mean fluorescence intensity [a.u.]
2'F-ANA at 1 2 7 8 9 12,363
2'F-ANA at 2 3 4 5 6 7 9 10 12 15,147
2'F-ANA at 2 3 8 9 10 11 12 14,286
2'F-ANA at 1 10 11 12 15,71.1
2'F-ANA at 1 3 6 7 8 10 11 12 15,114
2'F-ANA at 1 2 4 5 10 11 13,47.3
2'F-ANA at 1 7 10 12 13 14,56.4
2'F-ANA at 3 4 5 6 9 10 13 14 15,47.7
2'F-ANA at 2 4 6 8 9 12,584
2'F-ANA at 1 8 9 12 14 15,78.3
2'F-ANA at 2 3 7 10 12 13 14 15,290
2'F-ANA at 2 5 6 7 9 10 14 15,43.9
2'F-ANA at 3 7 8 9 10 11 12 13,607
2'F-ANA at 5 8 10 13 14 15,45.8
2'F-ANA at 1 4 6 7 11 13,86
2'F-ANA at 4 6 7 8 12 13 14,145
2'F-ANA at 2 3 7 8 12 13 14 15,557
2'F-ANA at 3 6 11 12 13 14 15,498
2'F-ANA at 5 6 7 8 9 10 11 13,49.6
2'F-ANA at 3 8,1170
2'F-ANA at 1 4 5 6 8 9 10 12 14,44.7
2'F-ANA at 1 5 8 10 11 12 14 15,54.3
2'F-ANA at 2 5 6 8 11 12 13 14 15,66
2'F-ANA at 2 8 13 14,207
2'F-ANA at 3 7 9 10 15,558

# Set 3
# Target: Sal-like protein 4, full length isoform A (SALL4, Homo sapiens, UniProt Q9UJQ4, residues 1-1053)
# Sequence of UniProt Q9UJQ4 (whole entry, looked up): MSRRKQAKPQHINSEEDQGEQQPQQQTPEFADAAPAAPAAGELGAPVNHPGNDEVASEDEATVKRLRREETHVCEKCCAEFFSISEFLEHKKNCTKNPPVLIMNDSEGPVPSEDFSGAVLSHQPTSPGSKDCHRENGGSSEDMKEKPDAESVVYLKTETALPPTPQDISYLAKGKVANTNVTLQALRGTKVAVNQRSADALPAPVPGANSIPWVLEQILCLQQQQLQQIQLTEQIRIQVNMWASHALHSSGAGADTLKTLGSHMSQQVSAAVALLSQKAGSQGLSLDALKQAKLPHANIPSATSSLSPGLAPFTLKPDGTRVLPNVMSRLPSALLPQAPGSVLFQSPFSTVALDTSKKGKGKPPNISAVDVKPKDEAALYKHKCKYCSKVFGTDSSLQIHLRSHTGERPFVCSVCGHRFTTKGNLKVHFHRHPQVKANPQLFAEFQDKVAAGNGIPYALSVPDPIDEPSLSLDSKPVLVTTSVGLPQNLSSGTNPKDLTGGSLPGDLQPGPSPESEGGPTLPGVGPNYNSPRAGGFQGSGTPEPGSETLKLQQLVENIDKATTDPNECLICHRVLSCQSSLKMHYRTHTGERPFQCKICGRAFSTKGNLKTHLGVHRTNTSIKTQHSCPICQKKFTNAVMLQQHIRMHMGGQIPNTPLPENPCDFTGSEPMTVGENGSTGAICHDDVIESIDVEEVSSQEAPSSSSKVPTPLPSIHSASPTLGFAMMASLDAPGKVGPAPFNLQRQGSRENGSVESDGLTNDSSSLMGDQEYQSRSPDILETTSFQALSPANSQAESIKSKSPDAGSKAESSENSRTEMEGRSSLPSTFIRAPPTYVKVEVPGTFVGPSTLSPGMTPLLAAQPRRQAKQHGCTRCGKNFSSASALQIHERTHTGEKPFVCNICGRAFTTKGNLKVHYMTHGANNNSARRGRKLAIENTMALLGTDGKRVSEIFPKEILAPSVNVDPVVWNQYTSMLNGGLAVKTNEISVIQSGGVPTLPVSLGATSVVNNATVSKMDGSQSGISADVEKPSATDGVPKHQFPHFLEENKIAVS
# Method: universal PBM
# Form: double-stranded DNA, one strand shown
# Medium: in vitro
# Tested at: 600 nM
# Notes: 8-mer, flanks averaged, mean of replicates
# Reading: higher = stronger binding
Strand,E-score
TGACCCCA,-0.317
CAACGTTA,0.155
AATTTGAT,0.215
CCCTAAAA,0.0617
ACCCAACT,-0.0328
GATAGAAC,0.137
ACGGCACG,-0.15
CAACCCCC,-0.216
GGGGCTTA,-0.238
ACTTGGGG,-0.11
CCCACTAG,-0.329
AGCAATTC,0.134
CATGTCGA,-0.064
AGCTACCA,-0.121
CCTTACAA,0.0718
ATGTGATC,0.118
ACCCATCG,-0.156
CACTAGCA,0.0974

# Set 4
# Target: Fragile X messenger ribonucleoprotein 1, C-terminal low-complexity region (Fmr1, Mus musculus, UniProt P35922)
# Method: RNA Bind-n-Seq
# Form: RNA
# Medium: in vitro
# Tested at: 200 nM
# Notes: whole 134-nt RNA, ends assumed
# Added: 150 mM KCl
# Reference: input library
# Reading: higher = stronger binding
# All sequences stand within: GGGAGUUCUACAGUCCGACGAUC … UGGAAUUCUCGGGUGUCAAGG
Strand,log2 enrichment
UUUUACAUUUAUACACAUGUAUUGGCUUCCUUUUACACUAUUAGGCGGUCAAGAAGCAGAUCGAGACGGCGGUCACAUUCUAAGUCUAGG,0.253
UAGUCCAGCAUCAAGAUUCGCCGGCCUGGAUACAAAUCAGCGACUUACAGCUUUAGCUGAAGACAGACCGUUAUUUGAUGGACCUAGUAG,-1.61
UAGGUAAGAAAGUACUCAUUGUCUAUGCACACCAGGAACCCAAGUCUUUCAACGGAUCCUUGAAGAAUGUGGCUGUAGAUGAACUGAGCA,0.1
AAGUCCUGUGCUACACAUCGUAUGUACCGAAUCGGGGUUUGGGUUUGGGGUUUGGGAAAGUAUUAUGUUACGCCGUUCGGAUCUGCACUU,0.738
CUCAAGUCCUGUGCUACACAUCGUAUGUACCGAAUCGGGUUGGGUUGGUUGGGGAAAGUAUUAUGUUACGCCGUUCGGAUCUGCACUUCC,1.16
CUCAAGUCCUGUGCUACACAUCGUAUGUACCGAAUCGGAAGGGGAAGGAAGGGGAAAGUAUUAUGUUACGCCGUUCGGAUCUGCACUUCC,0.809
UGCAGUGAUGGUCAUUGUCCUCCAGAGCAGUGAUGGAGGAAAUACCAGCCCAGGAAGCAGCAGGGUCACCAAGGGUCCAGUUUCAGUCUU,-0.481
UGGCCCUGGUGGCAUGCGGGGAGGAAGAGGUGGCCUCAUGGAUCGUGGUGGUCCCGGUGGAAUGUUCAGAGGUGGCAGUGGUGGAGACAG,-0.0426
UGGCCCUGGUGGCAUGCGGGGAGGAAGAGGUGGCCUCAUGGAUCGUGGUGGUCGCGGUGGAAUGUUCAGAGGUGGCCGUGGUGGAGACAG,0.0636
CCUGUGCUACACAUCGUAUGUACCGAAUCGGGGCCCCCCGGGGCCCCCCGGGCCCCCCGGGAAAGUAUUAUGUUACGCCGUUCGGAUCUG,-0.964
CAAGUCCUGUGCUACACAUCGUAUGUACCGAAUCGGGCCCGGGCCCGGGCCCGGGGAAAGUAUUAUGUUACGCCGUUCGGAUCUGCACUU,-1.17
GCAGGAAGUAAAAACAAAUGGAAAUGCUUCGGAUAGUGGCAGGGGUGGGGGUUGCUAAGCAAAGGGUGGGAUGGGAGUGGGUAAAGAGUU,0.458
UAACUUUAGAGGAGGAUCUGAUGGAUAUGGCAGUGGACGUGGAUUUUGGGAUGGCUAUAAUGGGUAUGGAGGAGGACCUGGAGGUGGCAA,0.241
GUCCUGUGCUACACAUCGUAUGUACCGAAUCGGGGAAAGGGGUUUUUGGGGAAAGGGGAAAGUAUUAUGUUACGCCGUUCGGAUCUGCAC,0.516

# Set 5
# Target: Interferon regulatory factor 5, full length, phosphomimetic (IRF5, Homo sapiens, UniProt Q13568-2, residues 1-514, K96S/S451D/S453D/S456D/S462D)
# Method: protein-binding microarray
# Form: double-stranded DNA, one strand shown
# Medium: in vitro
# Tested at: 250 nM
# Notes: 60-bp whole probe
# Added: salmon DNA 0.4 mg/ml
# Reference: random background probes
# Reading: higher = stronger binding
# All sequences stand within: GCCTAGCAC … GTCTTGATTCGCTTGACGCTGCTG
Strand,log fluorescence [z-score]
TCATATATCTTATCCTAACTGTGCTAG,0.731
TCAGTTTTACAGGTTCTCACTGTGCTA,0.479
GACGATAGCAGTTTCGAGACGTGCTAG,5.46
TTAGATATCAGTATCGATTGGTGCTAG,7.26
TTAGGTTACGGTTTCGGTTAGTGCTAG,8.3
CTGATTTTGCTTTCATTTATGTGCTAG,4.38
GACGGACTGAACTTTCGGGACGTGCTA,4.09
TTAGGACTGCTTCTCCTCTAGTGCTAG,-0.268
TCATTTTTCTAAGTAAAACTGTGCTAG,0.976
GACGATATCGGGAATGGAGACGTGCTA,1.16
GACGAGCTGAGACTGGAGACGTGCTAG,-0.565
TTAGATATCGGGTGTCGATTAGTGCTA,2.37
GACGGTCTCGGTATAGGGACGTGCTAG,0.31
GTCGGTATCCTTCTCCTGACGTGCTAG,0.605
GACGATCTCCGTTTCGAGACGTGCTAG,1.81
AAAATTTTGCTTCTAGAACAGTGCTAG,0.774
TTAGTTCTCGGTCTCGGTTAGTGCTAG,1.73
GACGAACTGGGGTTTCGAGACGTGCTA,1.13
GACGGTCGCCTTTTCCTGACGTGCTAG,-0.276
AGAGCCTGGGGATGCAGAGAGTGCTAG,-0.768
TTAGGACTGGGGACTGGGTAAGTGCTA,-0.605
TTAGGTTTCGGGTTTCGGGTAGTGCTA,9.36
TCACTTTCTGTTTTCTCACTGTGCTAG,8.95
TTAGGTCTCCTACTGCTTTGGTGCTAG,-0.211

# Set 6
# Target: Histone acetyltransferase KAT6A, winged helix 1, GST fusion (KAT6A, Homo sapiens, UniProt Q92794, residues 1-85)
# Method: protein binding microarray
# Form: double-stranded DNA, one strand shown
# Medium: in vitro
# Tested at: not given
# Notes: 8-mer, flanks averaged, mean of 2 arrays, mostly near background
# Reference: not given
# Reading: higher = stronger binding
# Target sequence (chain): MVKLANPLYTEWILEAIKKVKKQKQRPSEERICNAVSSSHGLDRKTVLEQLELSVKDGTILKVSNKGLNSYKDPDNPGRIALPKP
Strand,E-score
GACACTGA,-0.0889
ACCGCTAC,0.33
CCCAGGCA,-0.25
CAGAGTGG,-0.138
ACCCTACG,0.0444
ATAAATGC,-0.0682
ATTTAAAA,0.00103
AGGAAAAC,-0.124
ACATCGAG,-0.143
ATTCCTGG,-0.0933
AGAGAGCA,-0.0573
ATGTATTG,-0.00752
AACTGTAA,-0.0436
TACATCTA,-0.17
GCTTAAGC,0.046
GTCCACGA,0.087
GACATAAC,-0.0771
ACCTTGAA,-0.178
AGCCACTG,-0.0553
CTCCTGCC,-0.167
AGGTGTAT,-0.0847
ACAGATGC,-0.126

# Excerpt of the above (set 2):
Modification,mean fluorescence intensity [a.u.]
2'F-ANA at 1 4 6 7 11 13,86
2'F-ANA at 3 8,1170
2'F-ANA at 1 4 5 6 8 9 10 12 14,44.7
2'F-ANA at 1 7 10 12 13 14,56.4
2'F-ANA at 1 8 9 12 14 15,78.3
2'F-ANA at 5 8 10 13 14 15,45.8
2'F-ANA at 2 3 8 9 10 11 12 14,286
2'F-ANA at 3 7 8 9 10 11 12 13,607
2'F-ANA at 3 7 9 10 15,558
2'F-ANA at 2 3 4 5 6 7 9 10 12 15,147
2'F-ANA at 1 3 6 7 8 10 11 12 15,114
2'F-ANA at 1 2 7 8 9 12,363
2'F-ANA at 2 3 7 8 12 13 14 15,557
2'F-ANA at 2 8 13 14,207
2'F-ANA at 1 2 4 5 10 11 13,47.3
